Measured values collected from several papers.
Numbered parts are unrelated; each lists some results of a single study. Changes are numbered by the printed parent chain.

Set 1 — method: RNA Bind-n-Seq; molecule type: RNA; sample: in vitro; tested at: 365 nM; relative to: no-protein control; reading: higher = stronger binding
Target: RNA binding protein fox-1 homolog 2, RRM domain, GST-SBP tag (RBFOX2, Homo sapiens, UniProt O43251-10, residues 100-194)
Setting: natural RNA segment, single round, ends assumed
Target sequence (chain): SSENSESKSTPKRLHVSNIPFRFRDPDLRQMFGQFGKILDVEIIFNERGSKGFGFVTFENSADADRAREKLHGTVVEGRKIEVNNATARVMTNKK
Under “RBNS enrichment (R)”, `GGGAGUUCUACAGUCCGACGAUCGAGGGGAUUUCUUGGAAAAGGAGAGAGGAAUCCCCUAGAGCAGGGAAAGCAGUGCCUGCCAGCUGUUGUGCACCUUCCUGAGAAAUAAAUAUCCUCUAAAUUUUCAAACCUGGAAUUCUCGGGUGCCAA` is recorded as 0.939.
`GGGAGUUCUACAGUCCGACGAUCGUGGUGGUGGUGCUCAGCCUAAUCAAAACUGUGUGUCUGCAAGUUUGAAGAAAAUGGAGACAGCUAGAACAAGCCCCCAGACUGCAAUCACUGGCUCCAGAAUUGUCUUUUGGAAUUCUCGGGUGCCAA` — result for “RBNS enrichment (R)”: 0.842.
`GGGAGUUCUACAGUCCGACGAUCACAUUUGUCAUGUGGGAAGAAUUUAGAUUAUGAUGCAGGAAAUUUCUUCCUGGGGUCAGAAGUUUCUAAGAAGUCCUGUAUUUUUUAAGAAAUGGAAUUUAUUUAAAUACUGGAAUUCUCGGGUGCCAA`: “RBNS enrichment (R)” 0.817.
`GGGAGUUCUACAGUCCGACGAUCAAAAUUUUCAUGGUAAAAUGCCAGCAUGUAUGUACUUGUGUAGUGUGUACUUCUAAACAGAGAAGGCUUAUAAAAGUAAAUGCAUUAAGGCCAAGUGCAGUGGCUCACACUGGAAUUCUCGGGUGCCAA`: “RBNS enrichment (R)” 3.85.
`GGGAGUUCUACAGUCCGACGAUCACAUAAAAUGUCUGGUUGACUGUAUACCUUGUUUUUGAAGAAAUUUAUUCGUGAAAGGAAGAGCAGUUGUUAUUUAUUGUGAGGUCUCUUGCUUGUAAAGUAAAAGCUUUUGGAAUUCUCGGGUGCCAA` — result for “RBNS enrichment (R)”: 0.781.
Under “RBNS enrichment (R)”, `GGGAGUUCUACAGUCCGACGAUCCCCUGAGCUUGCUUUCCACAUUCUCCCAGGGUAUGGAGACCUAGACCUGUCUUUGGGGCCAUUAGCAUCUGGGGUUAUAGCAAGAAGAGUGGGGAGCAUGGAACUCCUGGUGGAAUUCUCGGGUGCCAA` is recorded as 0.543.
`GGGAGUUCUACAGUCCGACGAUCCUGGAACUCAAUCAGUAGAUGCCCAGAGAUGAUGUGCCUGCCUCUGCCGUCCAAUGCUGGGAUUGAAGGUGUGCACAGCCACACCAGCUUAAGGUUUUGUUAAAGAAGACUGGAAUUCUCGGGUGCCAA`: “RBNS enrichment (R)” 1.36.
`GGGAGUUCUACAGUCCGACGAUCCACCACAGGCUCCCCUGGGAGGACGAGGGAAACGCUGAUGAGACGCUGGGCAUCUCUCCUCUGUGGCUCUAGGACAUCUGUCCAGGAGGCUGGGCGGAGGUGGGCAGGAUUGGAAUUCUCGGGUGCCAA` — result for “RBNS enrichment (R)”: 0.48.
`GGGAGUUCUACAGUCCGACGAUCGGCAGAGCAUUUCUGGUCAGUUUCUCCAUGGUGCCUCCCACCCCUUUGUAAAGUGGAUGGACAUGAUGGAAUUCAGUUGUCUCACCCUGAUAGCCUGGGUGUUGAUAUUCUGGAAUUCUCGGGUGCCAA`: “RBNS enrichment (R)” 0.342.

Set 2 — method: RNA Bind-n-Seq; molecule type: RNA; sample: in vitro; tested at: 200 nM; setting: whole 134-nt RNA, ends assumed; added: 150 mM KCl; relative to: input library; reading: higher = stronger binding
Target: Ras GTPase-activating protein-binding protein 1, full length (G3BP1, Homo sapiens, UniProt Q13283)
Sequence of UniProt Q13283 (whole entry, looked up): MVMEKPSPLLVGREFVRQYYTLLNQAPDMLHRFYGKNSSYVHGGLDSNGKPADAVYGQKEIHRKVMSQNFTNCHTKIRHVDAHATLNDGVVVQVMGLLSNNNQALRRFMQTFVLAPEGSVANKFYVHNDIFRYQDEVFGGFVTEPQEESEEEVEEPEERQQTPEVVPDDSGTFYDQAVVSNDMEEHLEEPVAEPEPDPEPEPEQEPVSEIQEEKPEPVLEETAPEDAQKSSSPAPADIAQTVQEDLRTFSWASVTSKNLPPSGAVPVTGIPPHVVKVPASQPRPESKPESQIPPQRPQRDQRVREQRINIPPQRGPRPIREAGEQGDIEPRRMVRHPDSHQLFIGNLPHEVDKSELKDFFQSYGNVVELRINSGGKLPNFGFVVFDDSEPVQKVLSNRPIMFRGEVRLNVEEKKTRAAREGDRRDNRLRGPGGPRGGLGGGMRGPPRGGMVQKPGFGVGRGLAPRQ
The log2 enrichment of `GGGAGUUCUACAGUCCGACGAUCUGGCCCUGGUGGCAUGCGGGGAGGAAGAGGUGGCCUCAUGGAUCGUGGUGGUCCCGGUGGAAUGUUCAGAGGUGGCCGUGGUGGAGUCAGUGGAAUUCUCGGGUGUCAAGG` is reported as 0.102.
With `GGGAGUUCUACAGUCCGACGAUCUGGCCAUGGUGGCAUGCGGGGAGGAAGAGGUGGCCUCAUGGAUCGUGGUGGUCCCGGUGGAAUGUUCAGAGGUGGCCGUGGUGGAGACAGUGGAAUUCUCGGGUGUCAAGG` the log2 enrichment was 0.378.
`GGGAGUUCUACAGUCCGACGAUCAGUUACGGUAGCAGUUCUCAGAGCAGCAGCUAUGGGCAGCCCCAGAGUGGGAGCUACAGCCAGCAGCCUAGCUAUGGUGGACAGCAGCAAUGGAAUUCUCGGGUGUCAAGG` has a log2 enrichment of -1.6.
With `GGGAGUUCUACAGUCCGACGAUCAAAGGAAGUAAAAACAAAUGGAAAUGCUUCGGAUAGUGGCAGGGGUGGGGGUUGCUAAGGAAAGGGUGGGAUGGGAGUGGGUAAAGAGUUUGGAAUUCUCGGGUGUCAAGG` the log2 enrichment was 0.976.
`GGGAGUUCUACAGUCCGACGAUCGCAGGAAGUAAAAACAAAUGGAAAUGCUUCGGAUAGUGGCAGGGGUGGGGGUUGCUAAGGAAAGGGUGGGAUGGGAGUGAAAAAAGAGUUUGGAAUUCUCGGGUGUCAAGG` gave a log2 enrichment of 0.589.
`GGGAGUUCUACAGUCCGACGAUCCCUCAAGUCCUGUGCUACACAUCGUAUGUACCGAAUCGGGGAGGAGGGGAGGAAAGUAUUAUGUUACGCCGUUCGGAUCUGCACUUCCAGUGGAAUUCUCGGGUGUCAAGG` gave a log2 enrichment of 0.658.
The log2 enrichment of `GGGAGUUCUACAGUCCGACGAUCUCCUGUGCUACACAUCGUAUGUACCGAAUCGGGGUUUUUUUGGGGUGGGGAAAAAGGGGAAAGUAUUAUGUUACGCCGUUCGGAUCUGCAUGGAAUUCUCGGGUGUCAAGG` is reported as 0.535.
For `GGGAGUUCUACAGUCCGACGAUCUUGUUUAGCAAUCAAGGAGACCGCGAAGGCGUACAUUCCCGGGUGUUGCUUCCAGGAGAAACCCUGAACGGAGAGCUCGUCCUCUUACCAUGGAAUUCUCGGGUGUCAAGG`, the log2 enrichment was -0.622.

Set 3 — target: CCND2, cyclin fold, Cln2 fusion (human); method: yeast growth competition, sequencing; sample: yeast; setting: strong parent motif; relative to: not given; reading: higher = stronger binding
Parent: INSM1 docking peptide (human); PKAIRKLHFEDEV; partner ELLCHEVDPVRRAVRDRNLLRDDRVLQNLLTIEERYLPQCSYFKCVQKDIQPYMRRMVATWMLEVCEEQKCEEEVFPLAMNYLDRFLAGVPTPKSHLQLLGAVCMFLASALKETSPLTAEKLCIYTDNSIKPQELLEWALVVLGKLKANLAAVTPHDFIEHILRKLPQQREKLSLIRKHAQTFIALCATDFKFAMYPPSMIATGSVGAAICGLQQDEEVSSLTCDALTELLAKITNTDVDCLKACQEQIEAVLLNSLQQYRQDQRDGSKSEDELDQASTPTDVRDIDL
`E10K`: “normalised enrichment score” 0.671.
`D11C`: “normalised enrichment score” 1.78.
`D11Y`: “normalised enrichment score” 1.09.
For `D11K`, “normalised enrichment score” read 1.32.
For `K2E`, “normalised enrichment score” read 0.88.

Single results of other studies
`PhoQ, residues 284 288 289 292 302 303 SIHLQL` gave a fold induction of 0.798 (PhoP, residues 12 14 15 18 19 NIMAP (Escherichia coli, UniProt P23836); Sort-seq, item: YFP reporter; E. coli; PhoQ-PhoP variant library, added: 10 µM Mg2+; relative to: high Mg2+ state, higher = stronger signaling).
